Measured values collected from several papers.
Each numbered part is a random draw from the data of one study; scales do not carry over between parts. Changes are numbered by the printed parent chain.

Series 1
Target: RNA binding protein fox-1 homolog 2, RRM domain, GST-SBP tag (RBFOX2, Homo sapiens, UniProt O43251-10, residues 100-194)
Method: RNA Bind-n-Seq
Molecule type: RNA
Sample: in vitro
Concentration: 365 nM
Setting: natural RNA segment, single round, ends assumed
Baseline: no-protein control
Reading: higher = stronger binding
Target sequence (chain): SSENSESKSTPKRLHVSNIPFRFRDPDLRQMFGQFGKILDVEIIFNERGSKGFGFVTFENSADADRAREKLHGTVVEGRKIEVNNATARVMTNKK
| Sequence | RBNS enrichment (R) |
| --- | --- |
| GGGAGUUCUACAGUCCGACGAUCAGCUCAUGGCCUCCUCAGAGGAAGACAUCAUUGACUUGAAAUAGAGUCUAUGCCCUAUUGGCCAUCCUUAGUUUUCUUACGCAAAUUUAUACUGUUCAAGCAGCUCCAACUGGAAUUCUCGGGUGCCAA | 0.287 |
| GGGAGUUCUACAGUCCGACGAUCGCAACAUUUACAAGUGUGUCUGGAGUAAUCCUGUUUCCUCCCAGCUGCAAAGCUUCUCUCAAGUUCCUUAAUCCUUGAGAAUCUUAAGAGGCUUGCUGGCUGGUGAAAAAUGGAAUUCUCGGGUGCCAA | 0.414 |
| GGGAGUUCUACAGUCCGACGAUCGCGUGAGGACAGCAGGGGUUUUUCUUCAGAGUCUAUUUUUUCAGCGACAAGGACCCAGGUCUUCCUGCUGCUGCCAGGGAGAGCAGGGACAGUGCCGCGUGCGAGAUGAGUGGAAUUCUCGGGUGCCAA | 0.286 |
| GGGAGUUCUACAGUCCGACGAUCAAAUGGAAUAUUUGCUGAAUGAAUUAAGCAUAGAAAAUGUCAACCCAUCAGAAUUAUAUUUAUACAUAUUGGUGGAUAAGUUCUUGUCUUCCCACAUCAGAGAAUUUUUUUGGAAUUCUCGGGUGCCAA | 0.352 |

Single results of other studies
ABI1: ABI1, truncated, D143A, DHFR fusion (Arabidopsis thaliana)
G3BP1 RRM domain: Ras GTPase-activating protein-binding protein 1, RRM domain (G3BP1, Homo sapiens, UniProt Q13283)
Sequence of UniProt Q13283 (whole entry, looked up): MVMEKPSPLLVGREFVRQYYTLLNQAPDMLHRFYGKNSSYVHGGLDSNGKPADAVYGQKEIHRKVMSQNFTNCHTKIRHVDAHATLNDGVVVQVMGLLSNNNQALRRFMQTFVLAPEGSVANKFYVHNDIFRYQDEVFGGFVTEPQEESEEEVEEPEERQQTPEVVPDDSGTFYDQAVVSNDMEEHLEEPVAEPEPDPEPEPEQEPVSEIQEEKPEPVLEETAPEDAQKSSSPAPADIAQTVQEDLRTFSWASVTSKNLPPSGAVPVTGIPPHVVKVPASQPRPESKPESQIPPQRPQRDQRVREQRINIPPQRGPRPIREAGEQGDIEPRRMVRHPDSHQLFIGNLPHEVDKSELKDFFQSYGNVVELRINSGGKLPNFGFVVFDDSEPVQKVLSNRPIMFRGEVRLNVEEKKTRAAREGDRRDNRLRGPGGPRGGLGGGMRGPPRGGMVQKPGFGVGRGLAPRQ
P1: PYL1, truncated, DHFR fusion (Arabidopsis thaliana); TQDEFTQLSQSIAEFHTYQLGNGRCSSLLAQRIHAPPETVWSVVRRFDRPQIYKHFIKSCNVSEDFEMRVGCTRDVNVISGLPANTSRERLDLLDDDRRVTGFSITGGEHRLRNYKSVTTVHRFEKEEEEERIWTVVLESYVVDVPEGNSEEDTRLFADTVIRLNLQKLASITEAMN; partner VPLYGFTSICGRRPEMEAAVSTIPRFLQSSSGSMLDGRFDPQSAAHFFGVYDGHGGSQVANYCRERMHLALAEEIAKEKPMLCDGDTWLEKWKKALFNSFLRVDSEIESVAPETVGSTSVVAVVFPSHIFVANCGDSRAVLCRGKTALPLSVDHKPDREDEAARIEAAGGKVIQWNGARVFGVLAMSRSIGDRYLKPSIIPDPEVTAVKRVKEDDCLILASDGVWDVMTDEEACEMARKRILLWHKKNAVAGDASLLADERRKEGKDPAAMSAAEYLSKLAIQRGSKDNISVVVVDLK
| Substance | target | assay | system | conditions | how to read | endpoint | result |
| --- | --- | --- | --- | --- | --- | --- | --- |
| P1 H34D | ABI1 | DHFR PCA, deep sequencing | yeast | methotrexate growth selection, single substitutions, with: (+)-ABA 0 µM | baseline: wild-type fitted maximum, higher = stronger binding | relative binding score | 31.7% |
| GGGAGUUCUACAGUCCGACGAUCUGGGGACAAGCUGACAGCAGCCAUGGCGAGCGGCAGUGGAGACAGCGUCACCCGUCGGAGCGUGGCAUCACAGUUUUUCACUCAAGAGGAUGGAAUUCUCGGGUGUCAAGG | G3BP1 RRM domain | RNA Bind-n-Seq | RNA, in vitro | 1 µM, whole 134-nt RNA, ends assumed, with: 150 mM KCl | baseline: input library, higher = stronger binding | log2 enrichment | -0.326 |
| P1 N177E | ABI1 | DHFR PCA, deep sequencing | yeast | methotrexate growth selection, single substitutions, with: (+)-ABA 0 µM | baseline: wild-type fitted maximum, higher = stronger binding | relative binding score | 14.9% |
| GGGAGUUCUACAGUCCGACGAUCGUCCUGUGCUACACAUCGUAUGUACCGAAUCGGGGAAAGGGGUUUUUUUGGGGAGGGGAAAGUAUUAUGUUACGCCGUUCGGAUCUGCACUGGAAUUCUCGGGUGUCAAGG | G3BP1 RRM domain | RNA Bind-n-Seq | RNA, in vitro | 1 µM, whole 134-nt RNA, ends assumed, with: 150 mM KCl | baseline: input library, higher = stronger binding | log2 enrichment | 1.14 |
| P1 I12D | ABI1 | DHFR PCA, deep sequencing | yeast | methotrexate growth selection, single substitutions, with: (+)-ABA 17 µM | baseline: wild-type fitted maximum, higher = stronger binding | relative binding score | -8.82% |
| GGGAGUUCUACAGUCCGACGAUCUCAAGUCCUGUGCUACACAUCGUAUGUACCGAAUCGGAAAGGGAAAGGGAAAGGGAAAGUAUUAUGUUACGCCGUUCGGAUCUGCACUUCUGGAAUUCUCGGGUGUCAAGG | G3BP1 RRM domain | RNA Bind-n-Seq | RNA, in vitro | 1 µM, whole 134-nt RNA, ends assumed, with: 150 mM KCl | baseline: input library, higher = stronger binding | log2 enrichment | -0.141 |
| PhoQ, residues 284 288 289 292 302 303 SLKLQV | PhoP, residues 12 14 15 18 19 NNFVT (Escherichia coli, UniProt P23836) | Sort-seq, measured: YFP reporter | E. coli | PhoQ-PhoP variant library, with: 10 µM Mg2+ | baseline: high Mg2+ state, higher = stronger signaling | fold induction | 7.87 |

For quick reference, copied from above (single results of other studies):
| Substance | target | assay | system | conditions | how to read | endpoint | result |
| --- | --- | --- | --- | --- | --- | --- | --- |
| P1 N177E | ABI1 | DHFR PCA, deep sequencing | yeast | methotrexate growth selection, single substitutions, with: (+)-ABA 0 µM | baseline: wild-type fitted maximum, higher = stronger binding | relative binding score | 14.9% |
